Results from different studies.
Each line is one published result; not all experiments were run side by side. ± gives the spread as reported.

Compound	assay	system	setting	how to read	quantity	result
Cc1ncsc1-c1ccc(CNC(=O)[C@@H]2C[C@@H](OC(=O)OCCSSCCn3cc(CCCC(=O)N[C@@H](Cc4ccc(O)cc4)C(=O)N[C@@H](CCCNC(=N)N)C(=O)N[C@@H](CCCNC(=N)N)C(=O)N[C@@H](CCCNC(=N)N)C(=O)N[C@@H](CCCNC(=N)N)C(=O)N[C@@H](CCCNC(=N)N)C(=O)N[C@@H](CCCNC(=N)N)C(=O)N[C@@H](CCCNC(=N)N)C(=O)N[C@@H](CCCNC(=N)N)C(=O)N[C@@H](CCCNC(=N)N)C(N)=O)nn3)CN2C(=O)[C@@H](NC(=O)COCCOCCOCCNC(=O)C[C@@H]2N=C(c3ccc(Cl)cc3)c3c(sc(C)c3C)-n3c(C)nnc32)C(C)(C)C)cc1	UHPLC	PBS	100 nM, 24 h, 37 °C, added: 5 mM glutathione	baseline: total peak area	released payload	100%
N=C(N)NCCC[C@@H]1NC(=O)[C@H](CCCCNC(=O)CCOCCOCCOCCOCCNC(=O)CN2CCN(CC(=O)O)CCN(CC(=O)O)CCN(CC(=O)O)CC2)NC(=O)[C@@H](Cc2ccccc2)NC(=O)[C@H](CC(=O)O)NC(=O)CNC1=O [indium-111 labelled]	–	athymic nude mice, female, U-87 MG glioma xenograft, tumour and heart	intravenous, 4 h	baseline: tumour over heart	tumour to tissue ratio	9.51 ± 1.48
CCCC[C@H](NC(=O)CNC(=O)CNC(=O)c1ccc(NN)nc1)C(=O)N[C@H]1CC(=O)NCCCC[C@@H](C(N)=O)NC(=O)[C@H](Cc2c[nH]c3ccccc23)NC(=O)[C@H](CCCNC(=N)N)NC(=O)[C@@H](Cc2ccccc2)NC(=O)[C@H](Cc2c[nH]cn2)NC1=O [technetium-99m labelled]	–	C57 mouse, B16/F1 melanoma, lung	2 h, added: L-lysine 12 mg	–	uptake	0.17 ± 0.02 %ID/g
N=C(N)NCCC[C@@H]1NC(=O)[C@H](CCCCNC(=O)CC[C@H](NC(=O)CCOCCOCCOCCOCCNC(=O)CN2CCN(CC(=O)O)CCN(CC(=O)O)CCN(CC(=O)O)CC2)C(=O)NCCCC[C@@H]2NC(=O)[C@@H](Cc3ccccc3)NC(=O)[C@H](CC(=O)O)NC(=O)CNC(=O)[C@H](CCCNC(=N)N)NC2=O)NC(=O)[C@@H](Cc2ccccc2)NC(=O)[C@H](CC(=O)O)NC(=O)CNC1=O [indium-111 labelled]	–	athymic nude mice, female, U-87 MG glioma xenograft, tumour and muscle	intravenous, 0.5 h	baseline: tumour over muscle	tumour to tissue ratio	5.22 ± 0.95
CSCC[C@H](NC(=O)[C@H](CC(C)C)NC(=O)[C@H](Cc1c[nH]cn1)NC(=O)CNC(=O)[C@@H](NC(=O)[C@H](C)NC(=O)[C@H](Cc1c[nH]c2ccccc12)NC(=O)[C@H](CCC(N)=O)NC(=O)CCCCCNC(=O)CNC(=O)CNC(=O)CNC(=O)CSC(C)=O)C(C)C)C(N)=O [technetium-99m labelled]	–	Swiss mouse, kidney	intravenous, 18.5 MBq, 30 min	–	tissue uptake	3.01 ± 0.78 %ID/g
N=C(N)NCCC[C@@H]1NC(=O)[C@H](CCCCNC(=O)CNC(=O)CNC(=O)CNC(=O)CC[C@H](NC(=O)CCOCCOCCOCCOCCNC(=O)CC[C@H](NC(=O)CN2CCN(CC(=O)O)CCN(CC(=O)O)CCN(CC(=O)O)CC2)C(=O)NCCOCCOCCOCCOCCC(=O)N[C@@H](CCC(=O)NCC(=O)NCC(=O)NCC(=O)NCCCC[C@@H]2NC(=O)[C@@H](Cc3ccccc3)NC(=O)[C@H](CC(=O)O)NC(=O)CNC(=O)[C@H](CCCNC(=N)N)NC2=O)C(=O)NCC(=O)NCC(=O)NCC(=O)NCCCC[C@@H]2NC(=O)[C@@H](Cc3ccccc3)NC(=O)[C@H](CC(=O)O)NC(=O)CNC(=O)[C@H](CCCNC(=N)N)NC2=O)C(=O)NCC(=O)NCC(=O)NCC(=O)NCCCC[C@@H]2NC(=O)[C@@H](Cc3ccccc3)NC(=O)[C@H](CC(=O)O)NC(=O)CNC(=O)[C@H](CCCNC(=N)N)NC2=O)NC(=O)[C@@H](Cc2ccccc2)NC(=O)[C@H](CC(=O)O)NC(=O)CNC1=O [indium-111 labelled]	–	female athymic nude mice, heart	intravenous, 3 µCi, 1 h, U-87 MG glioma xenograft	–	tissue uptake	0.61 ± 0.04 %ID/g
CSCC[C@H](NC(=O)[C@H](CC(C)C)NC(=O)CNC(=O)[C@H](Cc1ccccc1)NC(=O)[C@H](Cc1ccccc1)NC(=O)[C@H](CCC(N)=O)NC(=O)[C@H](CCC(N)=O)NC(=O)[C@@H]1CCCN1C(=O)[C@H](CCCCNC(=O)CCC1=[N+]2C(=Cc3c(C)cc(C)n3[B-]2(F)F)C=C1)NC(=O)[C@@H]1CCCN1C(=O)[C@@H](N)CCCNC(=N)N)C(N)=O	–	PBS	10 nM, pH 7.4	–	excitation maximum	505 nm
CC(C)C[C@H](NC(=O)[C@@H]1CCCN1C(=O)[C@H](CCCCN)NC(=O)[C@@H](N)CO)C(=O)N1CCC[C@H]1C(=O)N[C@@H](CCC(=O)O)C(=O)N[C@H](C(=O)N[C@H](C(=O)N[C@@H](CC(=O)O)C(=O)N[C@@H](CCC(=O)O)C(=O)N[C@@H](Cc1ccc(O)cc1)C(=O)N[C@@H](Cc1cn(CCOCCOCCOCCNC(=O)CCc2ccc(O)c(CN(CCN(CC(=O)O)Cc3cc(CCC(=O)NCCCC[C@H](NC(=O)N[C@@H](CCC(=O)O)C(=O)O)C(=O)O)ccc3O)CC(=O)O)c2)nn1)C(=O)O)[C@@H](C)O)C(C)C [gallium-68 labelled]	–	NMRI nu/nu mouse, LNCaP tumour, white adipose tissue	135.34 nmol/kg, low molar activity	–	standardised uptake value	0.14 g/g
CCCC[C@H](NC(=O)CNC(=O)CNC(=O)CNC(=O)c1ccc(NN)nc1)C(=O)N[C@H]1CC(=O)NCCCC[C@@H](C(N)=O)NC(=O)[C@H](Cc2c[nH]c3ccccc23)NC(=O)[C@H](CCCNC(=N)N)NC(=O)[C@@H](Cc2ccccc2)NC(=O)[C@H](Cc2c[nH]cn2)NC1=O [technetium-99m labelled]	–	C57 mouse, B16/F1 melanoma, muscle	intravenous, 2 h	–	uptake	0.03 ± 0.03 %ID/g
CSCC[C@H](NC(=O)[C@H](CC(C)C)NC(=O)[C@H](Cc1c[nH]cn1)NC(=O)CNC(=O)[C@@H](NC(=O)[C@H](C)NC(=O)[C@H](Cc1c[nH]c2ccccc12)NC(=O)[C@H](CCC(N)=O)NC(=O)CCCCNC(=O)CSCCSCCP(CO)CO)C(C)C)C(N)=O [technetium-99m labelled]	–	CF-1 mouse	intravenous, 24 h	–	uptake in blood	0 %ID
N=C(N)NCCC[C@@H]1NC(=O)[C@H](CCCCNC(=O)CC[C@H](NC(=O)CCOCCOCCOCCOCCNC(=O)CC[C@H](NC(=O)CN2CCN(CC(=O)O)CCN(CC(=O)O)CCN(CC(=O)O)CC2)C(=O)NCCOCCOCCOCCOCCC(=O)N[C@@H](CCC(=O)NCCCC[C@@H]2NC(=O)[C@@H](Cc3ccccc3)NC(=O)[C@H](CC(=O)O)NC(=O)CNC(=O)[C@H](CCCNC(=N)N)NC2=O)C(=O)NCCCC[C@@H]2NC(=O)[C@@H](Cc3ccccc3)NC(=O)[C@H](CC(=O)O)NC(=O)CNC(=O)[C@H](CCCNC(=N)N)NC2=O)C(=O)NCCCC[C@@H]2NC(=O)[C@@H](Cc3ccccc3)NC(=O)[C@H](CC(=O)O)NC(=O)CNC(=O)[C@H](CCCNC(=N)N)NC2=O)NC(=O)[C@@H](Cc2ccccc2)NC(=O)[C@H](CC(=O)O)NC(=O)CNC1=O [indium-111 labelled]	–	athymic nude mice, female, U-87 MG glioma xenograft, tumour and muscle	intravenous, 1 h	baseline: tumour over muscle	tumour to tissue ratio	11.8 ± 3.58
CCCC[C@H](NC(=O)CCCCCCCNC(=O)c1ccc(NN)nc1)C(=O)N[C@H]1CC(=O)NCCCC[C@@H](C(N)=O)NC(=O)[C@H](Cc2c[nH]c3ccccc23)NC(=O)[C@H](CCCNC(=N)N)NC(=O)[C@@H](Cc2ccccc2)NC(=O)[C@H](Cc2c[nH]cn2)NC1=O [technetium-99m labelled]	–	C57 mouse, B16/F1 melanoma, bone	intravenous, 0.5 h	–	uptake	1.09 ± 0.28 %ID/g
